Published values from different studies.
A part holds a random share of what one study measured. pIC50: −log10 of the molar value.
UniProt P07332, sequence (whole entry, looked up): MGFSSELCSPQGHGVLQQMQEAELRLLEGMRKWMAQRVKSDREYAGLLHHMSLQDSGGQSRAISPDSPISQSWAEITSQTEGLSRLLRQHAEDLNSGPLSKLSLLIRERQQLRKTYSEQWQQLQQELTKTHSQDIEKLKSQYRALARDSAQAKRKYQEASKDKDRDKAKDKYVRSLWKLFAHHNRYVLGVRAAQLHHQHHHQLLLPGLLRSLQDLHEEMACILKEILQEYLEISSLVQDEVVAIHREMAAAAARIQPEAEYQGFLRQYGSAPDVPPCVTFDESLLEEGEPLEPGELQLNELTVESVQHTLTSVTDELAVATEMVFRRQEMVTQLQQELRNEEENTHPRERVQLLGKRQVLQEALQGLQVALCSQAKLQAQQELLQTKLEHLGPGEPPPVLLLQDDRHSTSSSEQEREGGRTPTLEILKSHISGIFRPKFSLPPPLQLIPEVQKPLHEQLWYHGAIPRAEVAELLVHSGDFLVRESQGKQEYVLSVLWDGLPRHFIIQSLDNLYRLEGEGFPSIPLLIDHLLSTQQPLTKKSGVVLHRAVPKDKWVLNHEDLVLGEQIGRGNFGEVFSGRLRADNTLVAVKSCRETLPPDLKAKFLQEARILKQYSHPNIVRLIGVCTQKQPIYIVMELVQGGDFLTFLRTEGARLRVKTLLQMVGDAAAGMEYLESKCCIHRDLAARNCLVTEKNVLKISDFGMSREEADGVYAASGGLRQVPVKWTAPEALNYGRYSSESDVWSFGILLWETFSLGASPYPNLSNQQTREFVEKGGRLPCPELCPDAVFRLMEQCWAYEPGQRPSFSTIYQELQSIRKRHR
UniProt P78368, sequence (whole entry, looked up): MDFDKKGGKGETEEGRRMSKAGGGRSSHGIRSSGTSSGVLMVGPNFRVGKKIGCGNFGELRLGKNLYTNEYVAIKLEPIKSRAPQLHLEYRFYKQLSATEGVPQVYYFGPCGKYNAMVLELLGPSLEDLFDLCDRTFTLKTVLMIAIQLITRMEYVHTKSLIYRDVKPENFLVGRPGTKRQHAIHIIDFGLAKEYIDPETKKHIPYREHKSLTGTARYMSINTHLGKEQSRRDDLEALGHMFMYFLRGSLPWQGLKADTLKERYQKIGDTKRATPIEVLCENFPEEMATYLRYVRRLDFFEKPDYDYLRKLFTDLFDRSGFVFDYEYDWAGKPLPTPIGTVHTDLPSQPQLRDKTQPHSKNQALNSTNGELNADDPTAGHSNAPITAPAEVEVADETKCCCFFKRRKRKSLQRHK
UniProt P54760, sequence (whole entry, looked up): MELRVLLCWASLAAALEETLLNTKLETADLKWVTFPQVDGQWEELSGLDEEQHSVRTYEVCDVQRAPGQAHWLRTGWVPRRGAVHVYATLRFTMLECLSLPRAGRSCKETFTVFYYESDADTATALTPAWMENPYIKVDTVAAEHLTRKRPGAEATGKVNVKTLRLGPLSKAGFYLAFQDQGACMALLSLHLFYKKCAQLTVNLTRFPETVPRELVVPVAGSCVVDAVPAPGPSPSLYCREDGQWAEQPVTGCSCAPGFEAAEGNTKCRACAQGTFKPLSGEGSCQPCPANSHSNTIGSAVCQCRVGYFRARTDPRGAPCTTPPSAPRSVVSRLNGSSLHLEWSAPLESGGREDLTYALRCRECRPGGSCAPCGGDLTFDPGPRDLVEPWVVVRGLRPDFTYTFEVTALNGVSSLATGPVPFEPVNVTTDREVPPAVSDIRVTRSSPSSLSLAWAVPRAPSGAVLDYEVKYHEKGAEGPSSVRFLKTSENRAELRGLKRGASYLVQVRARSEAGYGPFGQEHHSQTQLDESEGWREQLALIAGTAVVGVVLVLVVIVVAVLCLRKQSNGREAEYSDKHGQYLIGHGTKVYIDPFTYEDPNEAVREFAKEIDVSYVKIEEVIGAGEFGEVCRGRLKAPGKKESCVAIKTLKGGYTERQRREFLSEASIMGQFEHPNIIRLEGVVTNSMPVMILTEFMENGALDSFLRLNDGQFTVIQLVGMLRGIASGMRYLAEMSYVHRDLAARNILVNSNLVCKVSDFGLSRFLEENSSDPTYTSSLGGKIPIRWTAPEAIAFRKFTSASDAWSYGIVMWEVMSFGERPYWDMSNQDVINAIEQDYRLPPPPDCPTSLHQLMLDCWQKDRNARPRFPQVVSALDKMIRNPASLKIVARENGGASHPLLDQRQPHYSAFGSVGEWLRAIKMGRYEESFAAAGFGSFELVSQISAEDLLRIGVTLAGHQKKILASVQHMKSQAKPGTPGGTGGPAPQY
UniProt P15056, sequence (whole entry, unmodified, looked up): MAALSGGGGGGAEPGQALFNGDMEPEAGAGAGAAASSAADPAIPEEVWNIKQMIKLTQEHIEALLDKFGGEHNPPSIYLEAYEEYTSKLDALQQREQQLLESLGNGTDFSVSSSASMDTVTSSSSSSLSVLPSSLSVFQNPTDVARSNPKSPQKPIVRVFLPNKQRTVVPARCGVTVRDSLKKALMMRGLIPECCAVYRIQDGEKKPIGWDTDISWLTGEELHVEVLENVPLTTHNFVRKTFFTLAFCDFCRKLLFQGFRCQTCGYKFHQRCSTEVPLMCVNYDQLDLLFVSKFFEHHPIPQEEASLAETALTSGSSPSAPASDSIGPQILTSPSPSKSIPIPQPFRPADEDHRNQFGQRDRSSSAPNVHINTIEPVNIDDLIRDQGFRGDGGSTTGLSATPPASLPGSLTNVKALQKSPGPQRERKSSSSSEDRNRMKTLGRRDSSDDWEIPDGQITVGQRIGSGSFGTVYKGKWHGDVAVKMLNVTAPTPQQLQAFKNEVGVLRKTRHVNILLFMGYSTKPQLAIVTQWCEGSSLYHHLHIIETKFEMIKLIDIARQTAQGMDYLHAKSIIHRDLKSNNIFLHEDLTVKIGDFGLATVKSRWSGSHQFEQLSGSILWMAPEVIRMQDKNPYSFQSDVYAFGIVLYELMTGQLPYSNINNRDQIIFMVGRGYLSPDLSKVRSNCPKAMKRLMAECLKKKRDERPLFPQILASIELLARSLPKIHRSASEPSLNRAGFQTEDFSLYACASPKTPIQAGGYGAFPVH
UniProt Q9UM73, sequence (whole entry, looked up): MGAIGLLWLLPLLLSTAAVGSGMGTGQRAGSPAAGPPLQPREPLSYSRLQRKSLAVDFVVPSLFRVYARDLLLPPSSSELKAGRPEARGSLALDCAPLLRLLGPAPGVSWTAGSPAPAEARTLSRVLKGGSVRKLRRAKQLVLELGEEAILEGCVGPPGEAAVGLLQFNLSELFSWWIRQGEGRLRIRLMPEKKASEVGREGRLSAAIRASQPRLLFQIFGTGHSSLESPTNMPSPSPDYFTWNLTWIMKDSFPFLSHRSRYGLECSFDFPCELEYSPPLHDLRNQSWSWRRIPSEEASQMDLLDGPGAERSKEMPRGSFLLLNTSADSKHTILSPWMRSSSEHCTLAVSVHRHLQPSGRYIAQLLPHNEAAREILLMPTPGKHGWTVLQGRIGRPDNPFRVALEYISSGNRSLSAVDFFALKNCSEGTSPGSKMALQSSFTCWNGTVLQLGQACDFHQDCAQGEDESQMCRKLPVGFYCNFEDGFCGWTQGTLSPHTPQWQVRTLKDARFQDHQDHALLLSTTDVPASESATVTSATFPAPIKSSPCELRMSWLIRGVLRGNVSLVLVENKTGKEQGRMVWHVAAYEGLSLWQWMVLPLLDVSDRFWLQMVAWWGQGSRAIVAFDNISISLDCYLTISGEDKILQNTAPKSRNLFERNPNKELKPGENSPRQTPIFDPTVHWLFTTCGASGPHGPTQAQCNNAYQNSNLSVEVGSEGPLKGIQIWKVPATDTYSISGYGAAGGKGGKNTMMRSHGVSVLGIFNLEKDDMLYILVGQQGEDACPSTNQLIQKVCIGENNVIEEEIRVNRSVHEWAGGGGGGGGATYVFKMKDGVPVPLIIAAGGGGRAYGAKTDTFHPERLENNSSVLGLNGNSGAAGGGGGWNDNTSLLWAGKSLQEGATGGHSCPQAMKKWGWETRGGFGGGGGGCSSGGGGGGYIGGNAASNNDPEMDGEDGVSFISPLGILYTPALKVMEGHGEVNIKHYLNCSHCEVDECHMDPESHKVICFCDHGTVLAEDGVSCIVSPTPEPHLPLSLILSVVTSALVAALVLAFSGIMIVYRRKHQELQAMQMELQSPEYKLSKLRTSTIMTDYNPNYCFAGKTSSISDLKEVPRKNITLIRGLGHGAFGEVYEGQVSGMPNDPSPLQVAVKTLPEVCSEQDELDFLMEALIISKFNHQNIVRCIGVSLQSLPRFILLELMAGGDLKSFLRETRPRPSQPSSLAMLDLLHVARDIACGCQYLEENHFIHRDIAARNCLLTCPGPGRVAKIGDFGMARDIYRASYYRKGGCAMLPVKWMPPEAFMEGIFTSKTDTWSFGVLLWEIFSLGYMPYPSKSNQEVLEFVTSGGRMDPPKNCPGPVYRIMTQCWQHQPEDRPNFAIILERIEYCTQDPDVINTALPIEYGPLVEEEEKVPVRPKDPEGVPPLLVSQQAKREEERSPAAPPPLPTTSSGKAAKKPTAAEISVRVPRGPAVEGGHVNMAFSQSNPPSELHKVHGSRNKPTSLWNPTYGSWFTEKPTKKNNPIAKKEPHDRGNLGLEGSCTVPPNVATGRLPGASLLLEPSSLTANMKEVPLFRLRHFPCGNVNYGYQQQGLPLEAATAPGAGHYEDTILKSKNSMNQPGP
UniProt Q6P2M8, sequence (whole entry, looked up): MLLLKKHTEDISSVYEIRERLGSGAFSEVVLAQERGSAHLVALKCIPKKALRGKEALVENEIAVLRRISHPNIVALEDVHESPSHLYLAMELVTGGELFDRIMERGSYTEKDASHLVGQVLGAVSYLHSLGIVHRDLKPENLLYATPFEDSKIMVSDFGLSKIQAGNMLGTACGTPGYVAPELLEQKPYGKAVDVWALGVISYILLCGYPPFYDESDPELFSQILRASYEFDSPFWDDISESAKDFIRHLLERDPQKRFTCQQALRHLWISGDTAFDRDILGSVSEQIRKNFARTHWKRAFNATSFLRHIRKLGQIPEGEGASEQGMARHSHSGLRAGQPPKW

Sample 1
SMILES: Cc1ccc(NC(=O)c2ccnc(C(F)(F)F)c2)cc1-c1cc(OCCO)nc(N2CCOCC2)c1
target | pIC50
Ephrin type-B receptor 4 (EPHB4, Homo sapiens, UniProt P54760) | < 5.52
Serine/threonine-protein kinase B-raf (BRAF, Homo sapiens, UniProt P15056, V600E) | 8.27
Proto-oncogene tyrosine-protein kinase Src (SRC, Homo sapiens, UniProt P12931) | < 5.52
Receptor-type tyrosine-protein kinase FLT3 (FLT3, Homo sapiens, UniProt P36888) | < 5.52
Tyrosine-protein kinase receptor Tie-1 (TIE1, Homo sapiens, UniProt P35590) | < 5.52
Tyrosine-protein kinase ABL1 (ABL1, Homo sapiens, UniProt P00519) | < 5.52

Sample 2
Structure (SMILES): CNC(=O)Nc1ccc2c(c1)CC[C@@]21OC(=O)N(CC(=O)N(Cc2ccc(F)cc2)[C@@H](C)C(F)(F)F)C1=O
Read-out: cell-free assay
Technique: competition with immobilised ligand
Tested at: 1 µM
target | remaining binding [%]
cAMP-dependent protein kinase catalytic subunit beta (PRKACB, Homo sapiens, UniProt P22694) | 100
Calcium/calmodulin-dependent protein kinase type 1B (PNCK, Homo sapiens, UniProt Q6P2M8) | 100
Tyrosine-protein kinase Fes/Fps (FES, Homo sapiens, UniProt P07332) | 94
Casein kinase I isoform gamma-2 (CSNK1G2, Homo sapiens, UniProt P78368) | 87
Macrophage colony-stimulating factor 1 receptor (CSF1R, Homo sapiens, UniProt P07333) | 99
ALK tyrosine kinase receptor (ALK, Homo sapiens, UniProt Q9UM73) | 68
Receptor-type tyrosine-protein kinase FLT3 (FLT3, Homo sapiens, UniProt P36888, R834Q) | 92

Sample 3
Target: Receptor-type tyrosine-protein kinase FLT3 (FLT3, Homo sapiens, UniProt P36888)
Read-out: enzyme activity
Mode: inhibitor
Tested at: 0.5 µM
Baseline: control
Compound | remaining activity
NCCNc1ncc(C(N)=O)c(Nc2cccc(C(F)(F)F)c2)n1 | 32.3%
OCC(O)CCON=C1C(c2c(O)[nH]c3ccccc23)=Nc2ccccc21 (stereo not shown) | 1.07%
Nc1[nH]nc2nc3ccccc3nc12 | 75.9%
O=S(=O)(c1cccc2cnccc12)N1CCCNCC1 | 103%
CN(C)c1ccc(C=C2C(=O)Nc3ccccc32)cc1 | 15.3%
O=C(Nc1cccc(Nc2cc(Nc3cccc(C(F)(F)F)c3)ncn2)c1)C1CC1 | 97.9%
N#CC(C#N)=C(N)/C(C#N)=C/c1ccc(O)cc1 | 92.2%
COc1ccc(OC)c2c(=S)c3ccccc3[nH]c12 | 71%
O=c1c2ccccc2[nH]c(=S)n1CCN1CCC(=C(c2ccc(F)cc2)c2ccc(F)cc2)CC1 | 104%
O=C(CCCc1ccc(-c2ccccc2F)cc1)Nc1ccc(O)cc1 | 104%
Cn1sc(=O)n(Cc2ccccc2)c1=O | 99.1%
CO[C@H]1C[C@@H]2CC[C@@H](C)[C@@](O)(O2)C(=O)C(=O)N2CCCC[C@H]2C(=O)O[C@H]([C@H](C)C[C@@H]2CC[C@@H](O)[C@H](OC)C2)CC(=O)[C@H](C)/C=C(\C)[C@@H](O)[C@@H](OC)C(=O)[C@H](C)C[C@H](C)/C=C/C=C/C=C/1C | 95.6%
Nc1ncnc2n[nH]c(Nc3ccc(F)cc3)c12 | 78.3%
Cn1c2ccccc2c2c3c(c4c5ccccc5n(CCC#N)c4c21)CNC3=O | 5.27%
COc1cc2ncnc(Nc3ccc(Oc4ccccc4)cc3)c2cc1OC | 3.23%
Cc1cccc(-c2[nH]c(C(C)(C)C)nc2-c2ccc3c(c2)OCO3)n1 | 96.2%
O=C1NC(=O)C(c2cn(CCCO)c3ncccc23)=C1c1cnccn1 | 87.8%
O=C1NC(=O)C(c2cn(CCCn3ccnc3)c3ccccc23)=C1Nc1ccccc1 | 8.21%
O=C(O)c1ccc2c3c1cccc3c(=O)n1c3ccccc3nc21 | 68.9%

Sample 4
Host: human
Medium: microsomes or S9
Tested at: 2 µM
Time: 0.5 h
Compound | remaining compound [%]
CN1CCN(C(=O)c2ccc(-c3ccc4nnc(Cc5cccc6c(=O)[nH]ccc56)n4n3)cc2)CC1 | 0
Cc1nnc(C)n1/N=C/c1ccc(OCC(N)=O)cc1 | 91.8
COc1cc(Br)c(S(=O)(=O)NC2CCN(S(=O)(=O)CCN3CCCCC3)CC2)cc1OC | 0.0275
Cc1csc2c(N3CCC(S(=O)(=O)NC(C)C)C3)ncnc12 (stereo not shown) | 85.9
c1ccc(Cn2c(CNc3nc4ccccc4n3CCN3CCOCC3)nc3ccccc32)cc1 | 0.343
O=C(N[C@H]1C2C=CC(C2)[C@H]1C(O)(c1ccccc1)c1ccccc1)OCc1ccccc1 (stereo partly shown) | 39

Sample 5
Cell line: A-375
Tested at: 100 µM
Time: 36 h
Compound | viability [%]
CCCCCCOC(=O)NC(=N)c1ccc(NCc2nc3cc(C(=O)N(CCC(=O)OCC)c4ccccn4)ccc3n2C)cc1 | 1.88
COc1ccc(CN(CCN(C)C)c2ccccn2)cc1 | 79.6
CO/N=C(\C(=O)N[C@@H]1C(=O)N2C(C(=O)OC(C)OC(C)=O)=C(COC(N)=O)CS[C@H]12)c1ccco1 (stereo partly shown) | 117
CC(N)[C@]12C[C@H]3C[C@H](C[C@H](C3)C1)C2 (stereo partly shown) | 105
c1ccc([C@H]2CN3CCSC3=N2)cc1 | 104

For quick reference, copied from above (sample 3):
Compound | remaining activity
O=C(Nc1cccc(Nc2cc(Nc3cccc(C(F)(F)F)c3)ncn2)c1)C1CC1 | 97.9%
N#CC(C#N)=C(N)/C(C#N)=C/c1ccc(O)cc1 | 92.2%
COc1ccc(OC)c2c(=S)c3ccccc3[nH]c12 | 71%
O=c1c2ccccc2[nH]c(=S)n1CCN1CCC(=C(c2ccc(F)cc2)c2ccc(F)cc2)CC1 | 104%
O=C(CCCc1ccc(-c2ccccc2F)cc1)Nc1ccc(O)cc1 | 104%
